Measurements of several laboratories.
Compare with care: the assays were run in different laboratories. ± marks the error that the study gave.
HDAC8: Histone deacetylase 8 (HDAC8, Homo sapiens, UniProt Q9BY41)
Sequence of UniProt Q9BY41 (whole entry, looked up): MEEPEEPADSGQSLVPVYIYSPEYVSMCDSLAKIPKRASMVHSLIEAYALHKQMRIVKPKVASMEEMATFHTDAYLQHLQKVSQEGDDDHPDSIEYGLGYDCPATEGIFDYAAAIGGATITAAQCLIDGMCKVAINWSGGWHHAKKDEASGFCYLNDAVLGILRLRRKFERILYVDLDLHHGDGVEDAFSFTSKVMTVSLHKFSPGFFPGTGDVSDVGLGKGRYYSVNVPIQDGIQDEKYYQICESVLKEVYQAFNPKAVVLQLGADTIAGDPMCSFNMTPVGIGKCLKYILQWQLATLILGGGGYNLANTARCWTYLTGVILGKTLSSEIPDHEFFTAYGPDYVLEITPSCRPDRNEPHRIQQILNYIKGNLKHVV
CPL: CPL (Toxoplasma gondii, UniProt Q6DMN0)
PTGS1: Prostaglandin G/H synthase 1 (PTGS1, Ovis aries, UniProt P05979)
Sequence of UniProt P05979 (whole entry, looked up): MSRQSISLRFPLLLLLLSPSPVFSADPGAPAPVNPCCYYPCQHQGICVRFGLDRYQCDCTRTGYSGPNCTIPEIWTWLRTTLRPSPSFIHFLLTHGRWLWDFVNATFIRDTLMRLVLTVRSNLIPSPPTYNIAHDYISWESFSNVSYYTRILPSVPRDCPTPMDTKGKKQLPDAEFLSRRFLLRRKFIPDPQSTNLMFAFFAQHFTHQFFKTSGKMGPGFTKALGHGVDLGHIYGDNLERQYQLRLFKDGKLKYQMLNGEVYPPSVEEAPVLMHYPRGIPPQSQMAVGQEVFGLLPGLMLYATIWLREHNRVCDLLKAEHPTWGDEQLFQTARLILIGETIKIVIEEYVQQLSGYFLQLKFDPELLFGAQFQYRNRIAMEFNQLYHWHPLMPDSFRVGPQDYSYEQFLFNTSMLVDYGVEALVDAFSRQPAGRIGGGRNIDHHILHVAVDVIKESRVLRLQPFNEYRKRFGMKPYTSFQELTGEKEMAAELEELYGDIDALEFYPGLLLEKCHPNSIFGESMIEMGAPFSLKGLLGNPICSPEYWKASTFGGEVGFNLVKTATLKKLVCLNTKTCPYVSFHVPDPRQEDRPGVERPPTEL
Sequence of UniProt P04062 (whole entry, unmodified, looked up): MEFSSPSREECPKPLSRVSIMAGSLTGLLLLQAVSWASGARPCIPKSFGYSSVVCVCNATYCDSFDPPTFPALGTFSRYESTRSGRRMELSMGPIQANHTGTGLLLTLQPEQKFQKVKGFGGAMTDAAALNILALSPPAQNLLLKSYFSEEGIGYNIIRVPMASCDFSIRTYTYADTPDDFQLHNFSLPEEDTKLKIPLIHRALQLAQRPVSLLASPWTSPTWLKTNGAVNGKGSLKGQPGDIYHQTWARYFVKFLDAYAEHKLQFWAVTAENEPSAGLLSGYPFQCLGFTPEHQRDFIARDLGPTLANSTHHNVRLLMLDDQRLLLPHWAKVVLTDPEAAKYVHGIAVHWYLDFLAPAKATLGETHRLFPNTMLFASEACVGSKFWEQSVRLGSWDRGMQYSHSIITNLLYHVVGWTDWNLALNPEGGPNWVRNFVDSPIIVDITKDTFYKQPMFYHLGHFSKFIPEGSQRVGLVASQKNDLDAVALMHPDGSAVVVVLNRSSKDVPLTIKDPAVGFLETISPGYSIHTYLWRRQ
Sequence of UniProt O00748 (whole entry, looked up): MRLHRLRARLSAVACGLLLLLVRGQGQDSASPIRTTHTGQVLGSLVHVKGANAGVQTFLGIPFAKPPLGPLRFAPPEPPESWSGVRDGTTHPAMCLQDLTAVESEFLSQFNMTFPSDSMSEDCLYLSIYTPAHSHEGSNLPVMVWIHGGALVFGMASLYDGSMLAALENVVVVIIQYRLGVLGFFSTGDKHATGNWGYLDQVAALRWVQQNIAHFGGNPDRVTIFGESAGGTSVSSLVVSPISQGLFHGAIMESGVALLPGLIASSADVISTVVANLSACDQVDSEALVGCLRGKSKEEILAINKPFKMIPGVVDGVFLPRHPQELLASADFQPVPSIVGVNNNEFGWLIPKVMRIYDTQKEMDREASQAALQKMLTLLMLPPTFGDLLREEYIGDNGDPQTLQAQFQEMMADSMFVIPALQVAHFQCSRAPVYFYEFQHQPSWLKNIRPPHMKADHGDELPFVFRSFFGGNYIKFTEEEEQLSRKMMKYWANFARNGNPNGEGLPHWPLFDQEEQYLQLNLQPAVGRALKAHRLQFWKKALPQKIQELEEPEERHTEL
Sequence of UniProt P10275 (whole entry, looked up): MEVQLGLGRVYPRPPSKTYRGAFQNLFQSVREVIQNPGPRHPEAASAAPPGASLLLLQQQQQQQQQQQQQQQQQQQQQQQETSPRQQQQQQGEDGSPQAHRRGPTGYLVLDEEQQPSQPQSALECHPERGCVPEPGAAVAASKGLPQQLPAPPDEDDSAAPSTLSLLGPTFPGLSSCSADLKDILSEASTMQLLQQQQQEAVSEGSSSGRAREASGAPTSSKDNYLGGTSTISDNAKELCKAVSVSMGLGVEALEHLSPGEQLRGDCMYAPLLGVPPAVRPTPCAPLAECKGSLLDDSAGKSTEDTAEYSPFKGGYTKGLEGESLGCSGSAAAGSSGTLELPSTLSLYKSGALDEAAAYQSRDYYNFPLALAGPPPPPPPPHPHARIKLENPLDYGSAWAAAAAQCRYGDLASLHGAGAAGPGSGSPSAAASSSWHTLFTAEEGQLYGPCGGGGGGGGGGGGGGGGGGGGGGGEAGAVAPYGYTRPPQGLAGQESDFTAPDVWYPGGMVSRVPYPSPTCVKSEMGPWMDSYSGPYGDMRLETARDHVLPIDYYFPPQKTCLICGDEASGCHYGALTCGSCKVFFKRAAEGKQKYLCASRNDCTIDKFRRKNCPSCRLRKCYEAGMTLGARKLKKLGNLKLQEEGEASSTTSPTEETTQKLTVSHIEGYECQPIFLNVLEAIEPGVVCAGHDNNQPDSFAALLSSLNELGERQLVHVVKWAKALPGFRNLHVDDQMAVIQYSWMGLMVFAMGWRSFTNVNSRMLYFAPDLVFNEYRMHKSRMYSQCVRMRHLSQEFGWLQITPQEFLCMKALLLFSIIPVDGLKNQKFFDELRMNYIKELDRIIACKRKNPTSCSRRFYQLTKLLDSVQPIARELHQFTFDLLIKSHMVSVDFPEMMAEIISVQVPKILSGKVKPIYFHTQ
Sequence of UniProt P19256 (whole entry, looked up): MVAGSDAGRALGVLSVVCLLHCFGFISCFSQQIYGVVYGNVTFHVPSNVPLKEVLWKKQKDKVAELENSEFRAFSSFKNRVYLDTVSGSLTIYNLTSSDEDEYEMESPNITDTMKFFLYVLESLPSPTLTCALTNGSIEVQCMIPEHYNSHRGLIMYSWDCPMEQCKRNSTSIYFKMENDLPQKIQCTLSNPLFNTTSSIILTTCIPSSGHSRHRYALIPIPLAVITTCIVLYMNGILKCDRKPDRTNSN
Sequence of UniProt Q02936 (whole entry, looked up): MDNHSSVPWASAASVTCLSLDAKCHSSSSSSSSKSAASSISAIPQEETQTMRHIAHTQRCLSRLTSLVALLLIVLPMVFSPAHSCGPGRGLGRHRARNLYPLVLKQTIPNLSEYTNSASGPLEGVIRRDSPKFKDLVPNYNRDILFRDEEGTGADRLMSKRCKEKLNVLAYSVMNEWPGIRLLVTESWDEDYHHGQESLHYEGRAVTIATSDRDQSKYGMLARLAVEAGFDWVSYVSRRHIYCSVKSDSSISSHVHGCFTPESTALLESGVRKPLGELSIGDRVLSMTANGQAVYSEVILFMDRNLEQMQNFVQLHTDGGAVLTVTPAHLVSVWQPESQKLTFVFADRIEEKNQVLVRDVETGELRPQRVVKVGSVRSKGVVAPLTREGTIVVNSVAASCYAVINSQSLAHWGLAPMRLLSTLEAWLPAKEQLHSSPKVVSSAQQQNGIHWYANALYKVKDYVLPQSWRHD
Sequence of UniProt Q9HB29 (whole entry, looked up): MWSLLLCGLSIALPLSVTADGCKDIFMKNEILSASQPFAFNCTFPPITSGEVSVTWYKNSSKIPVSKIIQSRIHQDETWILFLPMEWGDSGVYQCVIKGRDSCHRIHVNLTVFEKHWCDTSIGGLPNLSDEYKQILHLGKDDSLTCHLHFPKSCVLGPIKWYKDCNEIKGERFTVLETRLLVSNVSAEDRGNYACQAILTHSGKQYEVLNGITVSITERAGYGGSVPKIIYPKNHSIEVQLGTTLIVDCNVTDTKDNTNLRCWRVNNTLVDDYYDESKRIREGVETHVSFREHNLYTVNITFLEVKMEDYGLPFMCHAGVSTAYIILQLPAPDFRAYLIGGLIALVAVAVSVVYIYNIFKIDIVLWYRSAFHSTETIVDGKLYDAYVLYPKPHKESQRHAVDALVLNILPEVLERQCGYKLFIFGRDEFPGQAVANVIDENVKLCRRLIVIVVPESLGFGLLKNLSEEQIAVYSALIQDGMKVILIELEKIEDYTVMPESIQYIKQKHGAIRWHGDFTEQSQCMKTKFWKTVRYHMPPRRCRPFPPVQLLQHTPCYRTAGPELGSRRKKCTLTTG

The IC50 of `OC[C@@H]1[C@@H](O)[C@H](O)[C@@H](O)[C@H]2N[C@@H]12` is reported as 21 ± 1 µM (Lysosomal acid glucosylceramidase (GBA1, Homo sapiens, UniProt P04062, R534H); enzyme activity, inhibitor; 30 min preincubation, pH 5.2, 37 °C, with: 4-MU-β-Glc).
`CCN(C)C(=O)Oc1ccccc1/C=C1\Cc2cc(OC)c(OC)cc2C1=O` has an IC50 of 0.00367 ± 0.00023 µM (Cocaine esterase (CES2, Homo sapiens, UniProt O00748); enzyme activity, inhibitor; 3 min preincubation, with: fluorescein diacetate).
The IC50 of `CC[C@H](C)[C@@H]1NC(=O)[C@H](CC(C)C)NC(=O)[C@@](C)(NC(=O)[C@H](Cc2ccccc2)NC(=O)[C@H](Cc2ccc(O)cc2)NC(=O)[C@H](C)NC(=O)[C@@H](N)[C@@H](C)O)CCCC=CCCC[C@@](C)(C(=O)NCC(=O)N[C@@H](CCCNC(=N)N)C(=O)N[C@@H](Cc2c[nH]c3ccccc23)C(N)=O)NC(=O)[C@H](CC(C)C)NC1=O` is reported as 25 ± 7 µM (Gag-Pol polyprotein, integrase (gag-pol, Human immunodeficiency virus type 1 group M subtype B, UniProt P04585); integrase strand transfer, inhibitor).
With `CN(C)c1ccc(C(=O)NCc2ccc(CNC(=O)CS)cc2)cc1` the IC50 was 16.7 µM (HDAC8; enzyme activity, inhibitor).
With `CC(C)(C)c1ccc(C(=O)N2CCCN(c3nc4ccccc4s3)CC2)s1` the IC50 was 0.3 µM (hh, C-terminal autoprocessing domain (Drosophila melanogaster, UniProt Q02936); FRET).
For `CC(C)[C@@H]1NC(=O)[C@H](Cc2ccccc2)NC(=O)CSC[C@@H](C(N)=O)NC(=O)[C@H](CCC(=O)O)NC(=O)[C@H](CO)NC(=O)[C@H](Cc2c[nH]c3ccccc23)NC(=O)[C@H](C(C)C)NC(=O)[C@H](C(C)C)NC(=O)[C@H](Cc2ccc(O)cc2)NC(=O)[C@H](CC(=O)O)NC(=O)[C@H](Cc2c[nH]c3ccccc23)NC(=O)[C@H](Cc2ccc(O)cc2)NC(=O)[C@H](Cc2c[nH]c3ccccc23)NC(=O)[C@H](CCC(=O)O)NC1=O`, the IC50 was ~14 µM (Interleukin-1 receptor-like 2 (IL1RL2, Homo sapiens, UniProt Q9HB29); reporter gene, inhibitor; HEK-Blue IL-36R; 6 h, with: IL-36 0.03 ng/mL).
`N#Cc1nc(N2CCOCC2)nc(N(CCC2CCCCC2)Cc2ccc(F)cc2)n1` gave an IC50 of 66.8 µM (CPL; enzyme activity, inhibitor, Z-L-R-AMC hydrolysis fluorescence).
The IC50 of `COc1cc(-c2nn(C3CCC(N4CCN(C)CC4)CC3)c3ncnc(N)c23)ccc1NC(=O)OCc1ccccc1` (centres unmarked) is reported as > 20 µM (Protein kinase C alpha type (PRKCA, Homo sapiens, UniProt P17252); kinase activity, inhibitor; with: ATP 100 µM, MBP substrate).
`C[C@@H]1NC(=O)[C@H](C)NC(=O)[C@@H]2CSSC[C@H](NC(=O)[C@H](CO)NC(=O)CNC1=O)C(=O)N[C@@H](CCCCN)C(=O)N[C@H]1CSSC[C@H](NC(=O)[C@H](CCCCN)NC(=O)[C@@H]3CSSC[C@H](NC(=O)[C@H](CO)NC1=O)C(=O)N[C@@H](Cc1ccc(O)cc1)C(=O)NCC(=O)N[C@@H](CC(=O)O)C(=O)N[C@@H](CC(=O)O)C(=O)N3)C(=O)N[C@@H](CCC(=O)O)C(=O)N2` gave an IC50 of > 50 µM (Lymphocyte function-associated antigen 3 (CD58, Homo sapiens, UniProt P19256); human cells).
With `O=C(CCCCCCC(=O)Nc1ccc(N=Nc2ccccc2)cc1)NO` the IC50 was 0.777 ± 0.16 µM (HDAC8; enzyme activity, inhibitor; cis isomer, irradiated).
The IC50 of `C[C@@H]1Oc2c(c(=O)oc3c2ccc2ccccc23)[C@@H]1C` is reported as 51 µM (Tyrosine-protein kinase SYK (SYK, Homo sapiens, UniProt P43405); enzyme activity, inhibitor, ADP detection).
The IC50 of `CCN(CC)c1ccc(/C=C/C(=O)C(c2ccccc2)c2ccccc2)cc1` is reported as 29.5 µM (PTGS1; enzyme activity, inhibitor, ELISA).
`O=C(O)c1ccccc1Nc1ccc(Oc2ccc(C(F)(F)F)cc2)cc1` gave an IC50 of 53 ± 5.1 µM (Androgen receptor (AR, Homo sapiens, UniProt P10275); reporter gene, antagonist, MMTV-Luc reporter; MDA-kb2; 20 h, with: 8 nM DHT (EC90)).
`CC(=O)N[C@H](Cc1ccc2ccccc2c1)C(=O)N[C@](C)(Cc1ccc(Cl)cc1)C(=O)N[C@H](Cc1c[nH]c2ccccc12)C(=O)N[C@@H](CO)C(=O)N[C@@H](CCCCNC(C)C)C(=O)N[C@H](Cc1ccc(O)cc1)C(=O)N[C@@H](CC(C)C)C(=O)N[C@@H](CCCNC(=N)N)C(=O)N1CCC[C@H]1C(=O)N[C@H](C)C(N)=O` gave an IC50 of 0.351 ± 0.114 µM (Gonadotropin-releasing hormone receptor III (Gallus gallus, UniProt Q5EFE0); inositol phosphate production, antagonist; COS-7 transfected; with: GnRH-II 1 nM).
With `Cc1cn(C2CCC(OC(C(=O)O)P(=O)(O)O)C2)c(=O)[nH]c1=O` (racemic) the IC50 was 3.6 µM (Gag-Pol polyprotein, reverse transcriptase (gag-pol, Human immunodeficiency virus type 1 group M subtype B, UniProt P04585); enzyme activity, inhibitor).
`CC(C)CCN(Cc1ccccc1[N+](=O)[O-])c1nc(C#N)nc(N2CCOCC2)n1` gave an IC50 of 0.027 µM (CPL; enzyme activity, inhibitor, Z-L-R-AMC hydrolysis fluorescence).
The IC50 of `COc1cccc(/C=C/C(=O)Cc2ccccc2)c1OC` is reported as 50 µM (PTGS1; enzyme activity, inhibitor, ELISA).
